# Results from different studies.
# Numbered parts are unrelated; each lists some results of a single study. Positions count from the first letter of the parent shown.

# Block 1
# Target: Interferon regulatory factor 5, full length, phosphomimetic (IRF5, Homo sapiens, UniProt Q13568-2, residues 1-514, K96S/S451D/S453D/S456D/S462D)
# Method: protein-binding microarray
# Form: double-stranded DNA, one strand shown
# Sample: in vitro
# Concentration: 250 nM
# Notes: 60-bp whole probe
# Added: salmon DNA 0.4 mg/ml
# Baseline: random background probes
# Direction: higher = stronger binding
# Shared flanks, not repeated: GCCTAGCAC … GTCTTGATTCGCTTGACGCTGCTG
Oligonucleotide,log fluorescence
GAATGTGTCTTAAATAGGGCAGTGCTA,0.183 z-score
GACGATAACAGTATCGAGACGTGCTAG,2.8 z-score
TCAAGTCTGGGAGATGAAACTGTGCTA,-0.0169 z-score
TTAGGCCTGGGGACTGGGTTAGTGCTA,-0.51 z-score
TCATTTTGAGTTTTCCTACTGTGCTAG,0.833 z-score
CAGCCTCTACCTCCTGGGCTCGTGCTA,-0.521 z-score
GACGCACTGAGTATCGAGACGTGCTAG,1.36 z-score
TCAGGTCTCGGTTTCGGTTAGTGCTAG,8.68 z-score
GACGGACTGTACTATCGGGACGTGCTA,1.49 z-score
ATTAGAGGATAACTTACAGAGTGCTAG,-0.171 z-score
TTAGGACAGCTTTTCCTTTAGTGCTAG,0.0543 z-score
TCAAATTTTGCTTCTAGACTGTGCTAG,0.336 z-score
TTCGATATCAGTATCGATTAGTGCTAG,7.93 z-score
GACGAACTGGGGGCTGGAGACGTGCTA,0.0057 z-score
TTAGGTATAGGGACTGGGTTAGTGCTA,-0.325 z-score
TTAGTACTGCTTATCCTTTAGTGCTAG,0.056 z-score
CTTCTTTTGCTAATTTTTTTGTGCTAG,1.92 z-score
GACGATCTCATTTTCGAGACGTGCTAG,2.01 z-score

# Block 2
# Target: RNA binding protein fox-1 homolog 2, RRM domain, GST-SBP tag (RBFOX2, Homo sapiens, UniProt O43251-10, residues 100-194)
# Method: RNA Bind-n-Seq
# Form: RNA
# Sample: in vitro
# Concentration: 365 nM
# Notes: natural RNA segment, single round, ends assumed
# Baseline: no-protein control
# Direction: higher = stronger binding
# Shared flanks, not repeated: GGGAGUUCUACAGUCCGACGAUC … UGGAAUUCUCGGGUGCCAA
# Construct (chain): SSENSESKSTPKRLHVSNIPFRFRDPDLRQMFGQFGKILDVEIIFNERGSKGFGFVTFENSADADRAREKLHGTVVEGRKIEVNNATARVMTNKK
Oligonucleotide,RBNS enrichment (R)
ACAACUUUGCAGAAAGAGACACAGCUGGCUCUCUGCAGUGGUGUCCUCUCUGUUGCGUGUGUCGAGAGACACUGACAGUUUCGUGUAACUCCCAGGAAUACUGUACCUGU,0.355
CUGCCUCAGUGACUGGGCCUUUACACCGCUGCCAGUCACAGUGCAGCAGCAGUCUAAUGCCAAGGUGCUCUAGAAACACUAAUGUUCCUCCAGGGGGGACUCCUCCCCAC,0.239
UUGUAAAACCAAUGUCUGUUUUGUUACAUACCUUUCAUGUUGUGCUUUGUAAAUGUCUUAUUUGUGUAAUAAAUAAAGUUAAUGCGAGUAGAAGUGCCGGCACUUAAACC,4.01
UUCCUUGGAACAUGUAAGAACUGUGCAGUAGCCAUUUAUGGUUUAAAGUAAACAGGCCAGAUGAACCUGAGGGAUAAUAGAUUACAAAGAAUAUAUUUUUGUUAUGGCUG,0.277
CCUCCAGAUAGCAAGAGGUUUCUAGGGAAGUCACCUCACAGCAGGCUUGCAGUAUGUCCAGCUGGUUGGCAAACACGAGGAAGCUGCAGGGCUGGACCAUGUGGCCAAGC,0.563
UUGGUUUUCCUGUAUAGGAAUGAGAUUAAUUCCUUUCCAGGUAUUUUAUAAUUCUGGGAAGCAAAACCCAUGCCUCCCCCUAGCCAUUUUUACUGUUAUCCUAUUUAGAU,0.426
ACUACACAGUGUGCACACACUGGGGACUCCCCAGUCCUCCUGACUAUUAUGGGGACACAGGAAAGACCUCAGCCUCAGUUGUAAACCUGCUCUUUGUCUGCUCAAAGGAA,0.239
CAGAGGAAGAAAAACUAAAGAGUCGUUUGUUCAGAGACCUGACCUUAUAAAGUUGGGGGAGCAGCUGGGUUUGUACCUAUAACCUCAGCCUUUGAGAGAGAUUGAGAAAG,0.407
GGCACUUUAGAUAAGCCUUUUUAAAAUUCUUUCUGAUUUUAAAUAAUGCGUCAAAAAAUGUGCAGAAAAUGUAUUGCAUCCCUUGAUACUGUCUAACGAAUAGCACAUAA,1.35
AGGACAUAAAUUCAGAGUGGCUGGCCCUGAAUAAUGCCAGGCUGGGCAGCGAGAGGACAGGCUAUGGCUUGCUCCUGGACCUAUACUCCCUUAGCCCCAGUCCCACAGAU,0.507
UGAAAUCCUUUCUAAAUUGCAUGAAUAGGCUCUGCUAACGUGAUGAGACAAACUGAAAAUUAUUGCAAGCAUUGACUAUAAUUAUGCAGUACGUUCUCAGGAUGCAUCCA,29.4
CUGCCUCCGUGGCUGGGAGACAUUCAUAACACAGAGGACUCAGUUCUGUUGGAAAGCCAGCAUGUGAGACCCUUCCACCAUGCCUCAUUCCAGCCCUCCUUGAGCUCACU,0.745

# Block 3
# Target: Ras GTPase-activating protein-binding protein 1, C-terminal RGG region (G3BP1, Homo sapiens, UniProt Q13283)
# Sequence of UniProt Q13283 (whole entry, looked up): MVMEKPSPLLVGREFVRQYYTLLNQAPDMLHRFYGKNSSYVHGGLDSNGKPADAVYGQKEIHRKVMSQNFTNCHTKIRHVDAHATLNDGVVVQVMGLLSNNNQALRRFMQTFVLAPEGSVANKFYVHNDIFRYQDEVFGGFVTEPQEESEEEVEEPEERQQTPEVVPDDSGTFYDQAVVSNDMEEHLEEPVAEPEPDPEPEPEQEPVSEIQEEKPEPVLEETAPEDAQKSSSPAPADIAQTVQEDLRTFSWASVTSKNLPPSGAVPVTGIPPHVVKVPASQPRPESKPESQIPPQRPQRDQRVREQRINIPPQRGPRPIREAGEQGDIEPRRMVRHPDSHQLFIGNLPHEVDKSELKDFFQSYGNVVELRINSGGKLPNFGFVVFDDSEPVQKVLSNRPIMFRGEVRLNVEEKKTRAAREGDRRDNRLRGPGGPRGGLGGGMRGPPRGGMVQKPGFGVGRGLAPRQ
# Method: RNA Bind-n-Seq
# Form: RNA
# Sample: in vitro
# Concentration: 1 µM
# Notes: whole 134-nt RNA, ends assumed
# Added: 150 mM KCl
# Baseline: input library
# Direction: higher = stronger binding
# Shared flanks, not repeated: GGGAGUUCUACAGUCCGACGAUC … UGGAAUUCUCGGGUGUCAAGG
Oligonucleotide,log2 enrichment
UGGCCCUGGUGGCAUGCGGGGAGGAAGAGGUGGCCUCAUGGAUCGUGGUGGUCCCGGUGGAAUGUUCAUAGGUGGCCGUGGUGGAGACAG,3.2
UCCUGUGCUACACAUCGUAUGUACCGAAUCGGUUUUUUGGGUUUUUUGGGUUUUUUGGGAAAGUAUUAUGUUACGCCGUUCGGAUCUGCA,-0.745
GUGCUACACAUCGUAUGUACCGAAUCGGGGCCCCCCCGGGGCCCCCCCGGGGCCCCCCCGGGGAAAGUAUUAUGUUACGCCGUUCGGAUC,-2.85
GUCCUGUGCUACACAUCGUAUGUACCGAAUCGGGCCCCCGGCCCCCGGGGCCCCCGGGAAAGUAUUAUGUUACGCCGUUCGGAUCUGCAC,-1.8
UGCUAGGCAAUGGAUCACUUGGAGUCCUUUAUUGCUGAAUGUGAUCGGAGAACUGAGCUCGCCAAGAAGCGGCUGGCAGAAACACAGGAG,0.33
CAAGUCCUGUGCUACACAUCGUAUGUACCGAAUCGGAGGAAAAAAAGGUUUUUGGAAAGUAUUAUGUUACGCCGUUCGGAUCUGCACUUC,-1.87
UGUUGUCUGGGUUUGGGGGUCGAGUAGAUGCGGGGCAGCCGGAGCUGUUGACGGAAAGGAGUAGCCCCAAAGGAGGGCAUGUGAAGUCGC,-0.908
CAAGUCCUGUGCUACACAUCGUAUGUACCGAAUCGGGAAAAAAAGGGAGGGUGGGAAAGUAUUAUGUUACGCCGUUCGGAUCUGCACUUC,1.48
GUCCUGUGCUACACAUCGUAUGUACCGAAUCGGGAAAAAGGAAAAAGGGGAAAAAGGGGAAAGUAUUAUGUUACGCCGUUCGGAUCUGCA,-0.963
CCUCAAGUCCUGUGCUACACAUCGUAUGUACCGAAUCGGGGAGGGAGGAGGGGAAAGUAUUAUGUUACGCCGUUCGGAUCUGCACUUCCA,0.906
UAACUUUAGAGGAGGAUCUGAUGGAUAUGGCAGUGGACGUGGAUUUGGGGAUGGCUAUAAUGGGUAUGGAGGAGGACCUGGAGGUGGCAU,-0.746
UUGAGAUUGGGUGGAUUCCUAUCAUCUGGAAUUCUGACUCCUCGGGUCUCCUUCUCUAGGUAGCCCAGCAGCAGUGAAGAUGCAGACUGA,-1.74
UUGCUGUCACCCGCUGCCUGUCUGCAGGAUCCCGGAUUCCGUAUCAGGGGACCGAAAUUAGUCGGAAAAUAGGAAGCAGGUGCUCGCUUG,-1.64
AGUCCUGUGCUACACAUCGUAUGUACCGAAUCGGGUUUUUGGGUGGGAAAAAAAGGGAAAGUAUUAUGUUACGCCGUUCGGAUCUGCACU,-0.0921

# Block 4
# Target: CCND3, cyclin fold, Cln2 fusion (human)
# Method: yeast growth competition, sequencing
# Sample: yeast
# Notes: weak parent motif
# Baseline: not given
# Direction: higher = stronger binding
# Starting sequence: E2F7 docking peptide (human); SSAQRRLEIPSGG; partner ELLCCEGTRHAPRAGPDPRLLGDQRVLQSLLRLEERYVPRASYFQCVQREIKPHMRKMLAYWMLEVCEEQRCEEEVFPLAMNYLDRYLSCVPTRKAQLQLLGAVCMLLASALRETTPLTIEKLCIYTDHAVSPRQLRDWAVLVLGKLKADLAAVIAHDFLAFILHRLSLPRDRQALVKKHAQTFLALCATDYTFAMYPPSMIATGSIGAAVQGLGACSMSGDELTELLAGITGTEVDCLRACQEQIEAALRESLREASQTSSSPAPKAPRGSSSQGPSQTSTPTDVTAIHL
Change,normalised enrichment score
SAAQRRLEIPSGG [S2A],0.111
SSAQRRLEIASGG [P10A],0.106
SSAQRRLEIPSGA [G13A],0.0561
SSAQRRLEIPAGG [S11A],0.0575
SSAQKRLEIPSGG [R5K],-0.232
SSAQRRLAIPSGG [E8A],0.101
SSAQARLEIPSGG [R5A],0.137
SSAQKRLELPSGG [R5K I9L],0.141

# Other studies, line by line
Substance,target,assay,test system,conditions,how to read,measurement,value
"PhoQ, residues 284 288 289 292 302 303 SLSLLA","PhoP, residues 12 14 15 18 19 TTLRV (Escherichia coli, UniProt P23836)","Sort-seq, refers to: YFP reporter",E. coli,"PhoQ-PhoP variant library, added: 10 µM Mg2+","baseline: high Mg2+ state, higher = stronger signaling",fold induction,11.3

# A few entries again (block 1):
Oligonucleotide,log fluorescence
GACGCACTGAGTATCGAGACGTGCTAG,1.36 z-score
TCAGGTCTCGGTTTCGGTTAGTGCTAG,8.68 z-score
GACGGACTGTACTATCGGGACGTGCTA,1.49 z-score
ATTAGAGGATAACTTACAGAGTGCTAG,-0.171 z-score
TTAGGACAGCTTTTCCTTTAGTGCTAG,0.0543 z-score
